Published values collected from several papers.
Each line is one published result; not all experiments were run side by side. Values joined by “and” are separate records of one study, mostly repeats; a detail may differ. ± marks the error that the study gave.

For `N#C[C@@H]1CCCN1C(=O)CNC(=O)c1ccnc2ccc(OCCCN3CCN(C(=O)CCc4ccc5c(c4)CN4CCN(Cc6cc(CCC(=O)O)ccc6O)CC(=O)[O][Al-]([18F])([O]C(=O)C4)[O]5)CC3)cc12` (stereo partly shown), the tissue uptake was 0.33 ± 0.07 %ID/g (BALB/c nude mice, U-87 MG xenograft, muscle; 1 h, blocking, with: DOTA-FAPI-04 40 nmol/mouse co-injected).
`CCCC[C@H](NC(=O)CCCCCCCNC(=O)CN1CCN(CC(=O)O)CCN(CC(=O)O)CC1)C(=O)N[C@H]1CC(=O)NCCCC[C@@H](C(N)=O)NC(=O)[C@H](Cc2c[nH]c3ccccc23)NC(=O)[C@H](CCCNC(=N)N)NC(=O)[C@@H](Cc2ccccc2)NC(=O)[C@H](Cc2c[nH]cn2)NC1=O` [fluorine-18 labelled] has a tissue uptake of 7.07 ± 0.95 %ID/g (C57 mice B16-F10 melanoma, tumor; intravenous, 0.37 MBq, 2 h).
With `CC(C)C[C@H](NC(=O)[C@@H](CCCCNC(=O)[C@@H](Cc1ccccc1)NC(=O)CCCCCCCNC(=O)CN1CCN(CC(=O)O)CCN(CC(=O)O)CCN(CC(=O)O)CC1)NC(=O)[C@H](Cc1ccc(O)cc1)NC(=O)[C@H](CO)NC(=O)[C@H](Cc1c[nH]c2ccccc12)NC(=O)[C@H](Cc1c[nH]cn1)NC(=O)[C@@H]1CCC(=O)N1)C(=O)N[C@@H](CCCNC(=N)N)C(=O)N1CCC[C@H]1C(=O)NCC(N)=O` [indium-111 labelled] the tissue uptake was 0.87 ± 0.18 %ID (male athymic nude mice, DU-145 prostate cancer xenograft, intestines; intravenous, 0.037 MBq, 1 h).
For `COc1ccc(Nc2nc(Nc3ccc(OCCOCCOCC[18F])cc3)ncc2Br)cc1`, the tissue uptake was 1.85 ± 0.04 %ID/g (ICR mice, S180 tumour-bearing, liver; intravenous, 370 kBq, 120 min).
`CCCC[C@H](NC(=O)COCCOCCNC(=O)CN1CCN(CC(=O)O)CCN(CC(=O)O)CC1)C(=O)N[C@H]1CC(=O)NCCCC[C@@H](C(N)=O)NC(=O)[C@H](Cc2c[nH]c3ccccc23)NC(=O)[C@H](CCCNC(=N)N)NC(=O)[C@@H](Cc2ccccc2)NC(=O)[C@H](Cc2c[nH]cn2)NC1=O` [fluorine-18 labelled] has a tissue uptake of 0.55 ± 0.13 %ID/g (C57 mice B16-F10 melanoma, muscle; intravenous, 0.37 MBq, 0.5 h).
For `Cc1cc(C)n(CCN(CCN)CCCCCCNC(=O)[C@@H](N)Cc2c[nH]cn2)n1.[99Tc+].[C-]#[O+].[C-]#[O+].[C-]#[O+]`, the tissue uptake was 1.12 ± 0.18 %IA/g (BALB/c nude mice, MCF7 xenograft, spleen; intravenous, 15 min).
The tissue uptake of `COc1ccc2c(c1)C(C)(C)C(/C=C/C1=C(Oc3ccc(C(=O)NCCCCOc4cc(CN(Cc5ccccn5)Cc5ccccn5)cc(CN(Cc5ccccn5)Cc5ccccn5)c4)cc3)C(=C/C=C3/N(CCCCS(=O)(=O)[O-])c4ccc(OC)cc4C3(C)C)CCC1)=[N+]2CCCCS(=O)(=O)[O-].O=[N+]([O-])[O-].O=[N+]([O-])[O-].[99Tc+].[C-]#[O+].[C-]#[O+].[C-]#[O+].[Zn+2]` is reported as 0.32 %ID/g and 0.37 %ID/g and 0.29 %ID/g (BALB/c mice, healthy, muscle; 12 h post-injection).
For `COc1ccc(Nc2nc(Nc3ccc(OCCOCC[18F])cc3)ncc2Br)cc1`, the tissue uptake was 2.47 ± 0.18 %ID/g (ICR mice, S180 tumour-bearing, muscle; intravenous, 370 kBq, 120 min).
`O=C(NCC1OC2CCC=CCCC2O1)c1ccc(COCCOCCOCC[18F])cc1` (stereo not shown) gave a tissue uptake of 12.9 ± 0.2 %ID/g (healthy female BALB/c nude mice, large intestine; intravenous, 7.4 MBq per mouse, 60 min).
The tissue uptake of `N#C[C@@H]1CCCN1C(=O)CNC(=O)c1ccnc2ccc(OCCCN3CCN(C(=O)CCc4ccc5c(c4)CN4CCN6CC(=O)[O][68Ga-]([O]C(=O)C4)([O]5)[O]c4ccc(CCC(=O)N5CCN(CCCOc7ccc8nccc(C(=O)NCC(=O)N9CCC[C@H]9C#N)c8c7)CC5)cc4C6)CC3)cc12` is reported as 0.81 ± 0.28 %ID/g (BALB/c nude mice, U-87 MG xenograft, spleen; 1 h, blocking, with: DOTA-FAPI-04 40 nmol/mouse co-injected).
`CCCC[C@H](NC(=O)CNC(=O)CNC(=O)[C@H](CCCCNC(=O)[C@H](CCN)NC(=O)C(C)c1ccc(CC(C)C)cc1)NC(=O)CN1CCN(CC(=O)O)CCN(CC(=O)O)CCN(CC(=O)O)CC1)C(=O)N[C@H]1CC(=O)NCCCC[C@@H](C(N)=O)NC(=O)[C@H](Cc2c[nH]c3ccccc23)NC(=O)[C@H](CCCNC(=N)N)NC(=O)[C@@H](Cc2ccccc2)NC(=O)[C@H](Cc2c[nH]cn2)NC1=O` (stereo partly shown) [lutetium-177 labelled] has a tissue uptake of 1.42 ± 0.32 %ID/g (C57 mice, tumour-bearing, lung; 2 h).
The tissue uptake of `O=C(O)CCCOc1ccc([18F])cc1-c1cc(-c2ccccc2C(F)(F)F)n(-c2ccccc2)n1` is reported as 2.62 ± 0.49 %ID/g (mice, large intestine; intravenous, 180 min).
`CCCC[C@H](NC(=O)CNC(=O)CNC(=O)[C@H](CCCCNC(=O)[C@H](CC(=O)O)NC(=O)C(C)c1ccc(CC(C)C)cc1)NC(=O)CN1CCN(CC(=O)O)CCN(CC(=O)O)CCN(CC(=O)O)CC1)C(=O)N[C@H]1CC(=O)NCCCC[C@@H](C(N)=O)NC(=O)[C@H](Cc2c[nH]c3ccccc23)NC(=O)[C@H](CCCNC(=N)N)NC(=O)[C@@H](Cc2ccccc2)NC(=O)[C@H](Cc2c[nH]cn2)NC1=O` (stereo partly shown) [lutetium-177 labelled] gave a tissue uptake of 1.7 ± 0.34 %ID/g (C57 mice, tumour-bearing, spleen; intravenous, 0.037 MBq, 0.5 h).
The tissue uptake of `N#C[C@@H]1CCCN1C(=O)CNC(=O)c1ccnc2ccc(OCCCN3CCN(C(=O)CCc4ccc(O)c(CN5CCN6CC(=O)[O][Al-]([18F])([O]C(=O)C5)[O]c5ccc(CCC(=O)N7CCN(CCCOc8ccc9nccc(C(=O)NCC(=O)N%10CCC[C@H]%10C#N)c9c8)CC7)cc5C6)c4)CC3)cc12` (stereo partly shown) is reported as 12.5 ± 4.44 %ID/g (BALB/c nude mice, U-87 MG xenograft, bone; 1 h, blocking, with: DOTA-FAPI-04 40 nmol/mouse co-injected).
`CCCC[C@H](NC(=O)CNC(=O)CNC(=O)[C@H](CCCCNC(=O)C(C)c1ccc(CC(C)C)cc1)NC(=O)CN1CCN(CC(=O)O)CCN(CC(=O)O)CCN(CC(=O)O)CC1)C(=O)N[C@H]1CC(=O)NCCCC[C@@H](C(N)=O)NC(=O)[C@H](Cc2c[nH]c3ccccc23)NC(=O)[C@H](CCCNC(=N)N)NC(=O)[C@@H](Cc2ccccc2)NC(=O)[C@H](Cc2c[nH]cn2)NC1=O` (stereo partly shown) [lutetium-177 labelled] has a tissue uptake of 1.35 ± 0.25 %ID/g (C57 mice, tumour-bearing, skin; 2 h).
`O=C(NCC1OC2CCC=CCCC2O1)c1ccc([18F])nc1` (stereo not shown) gave a tissue uptake of 2.1 ± 1.4 %ID/g (healthy female BALB/c nude mice, skin; intravenous, 7.4 MBq per mouse, 10 min).

Repeated from above:
For `Cc1cc(C)n(CCN(CCN)CCCCCCNC(=O)[C@@H](N)Cc2c[nH]cn2)n1.[99Tc+].[C-]#[O+].[C-]#[O+].[C-]#[O+]`, the tissue uptake was 1.12 ± 0.18 %IA/g (BALB/c nude mice, MCF7 xenograft, spleen; intravenous, 15 min).
The tissue uptake of `COc1ccc2c(c1)C(C)(C)C(/C=C/C1=C(Oc3ccc(C(=O)NCCCCOc4cc(CN(Cc5ccccn5)Cc5ccccn5)cc(CN(Cc5ccccn5)Cc5ccccn5)c4)cc3)C(=C/C=C3/N(CCCCS(=O)(=O)[O-])c4ccc(OC)cc4C3(C)C)CCC1)=[N+]2CCCCS(=O)(=O)[O-].O=[N+]([O-])[O-].O=[N+]([O-])[O-].[99Tc+].[C-]#[O+].[C-]#[O+].[C-]#[O+].[Zn+2]` is reported as 0.32 %ID/g and 0.37 %ID/g and 0.29 %ID/g (BALB/c mice, healthy, muscle; 12 h post-injection).
